Published values of several laboratories.
Numbers after ± are the reported error.
SLC10A1: Hepatic sodium/bile acid cotransporter (SLC10A1, Homo sapiens, UniProt Q14973)
Sequence of UniProt Q14973 (whole entry, looked up): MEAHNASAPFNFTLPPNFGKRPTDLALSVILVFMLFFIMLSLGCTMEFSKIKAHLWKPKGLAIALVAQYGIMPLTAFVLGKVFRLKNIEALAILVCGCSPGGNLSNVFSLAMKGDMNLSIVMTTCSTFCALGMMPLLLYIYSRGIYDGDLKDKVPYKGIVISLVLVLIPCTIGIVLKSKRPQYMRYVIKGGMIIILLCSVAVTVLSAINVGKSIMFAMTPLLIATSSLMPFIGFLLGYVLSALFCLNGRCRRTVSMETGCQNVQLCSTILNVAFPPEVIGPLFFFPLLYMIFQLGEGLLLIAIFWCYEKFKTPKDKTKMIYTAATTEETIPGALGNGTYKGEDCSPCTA
DRD3: D(3) dopamine receptor (DRD3, Homo sapiens, UniProt P35462)
Sequence of UniProt P35462 (whole entry, looked up): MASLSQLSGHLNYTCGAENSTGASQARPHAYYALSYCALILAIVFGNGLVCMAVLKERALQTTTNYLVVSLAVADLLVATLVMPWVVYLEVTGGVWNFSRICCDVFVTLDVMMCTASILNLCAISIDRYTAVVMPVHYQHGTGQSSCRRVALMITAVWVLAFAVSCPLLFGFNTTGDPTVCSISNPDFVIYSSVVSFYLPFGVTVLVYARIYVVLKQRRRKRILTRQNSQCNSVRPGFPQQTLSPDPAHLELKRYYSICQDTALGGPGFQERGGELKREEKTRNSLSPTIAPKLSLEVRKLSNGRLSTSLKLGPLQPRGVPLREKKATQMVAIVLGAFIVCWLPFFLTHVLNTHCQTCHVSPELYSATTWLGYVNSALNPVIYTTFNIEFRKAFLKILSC
CDK2: Cyclin-dependent kinase 2 (CDK2, Homo sapiens, UniProt P24941)
CDK2 with cyclin A: Cyclin-dependent kinase 2, with cyclin A (CDK2, Homo sapiens, UniProt P24941)
ESR1: Estrogen receptor (ESR1, Homo sapiens, UniProt P03372)
Sequence of UniProt P03372 (whole entry, looked up): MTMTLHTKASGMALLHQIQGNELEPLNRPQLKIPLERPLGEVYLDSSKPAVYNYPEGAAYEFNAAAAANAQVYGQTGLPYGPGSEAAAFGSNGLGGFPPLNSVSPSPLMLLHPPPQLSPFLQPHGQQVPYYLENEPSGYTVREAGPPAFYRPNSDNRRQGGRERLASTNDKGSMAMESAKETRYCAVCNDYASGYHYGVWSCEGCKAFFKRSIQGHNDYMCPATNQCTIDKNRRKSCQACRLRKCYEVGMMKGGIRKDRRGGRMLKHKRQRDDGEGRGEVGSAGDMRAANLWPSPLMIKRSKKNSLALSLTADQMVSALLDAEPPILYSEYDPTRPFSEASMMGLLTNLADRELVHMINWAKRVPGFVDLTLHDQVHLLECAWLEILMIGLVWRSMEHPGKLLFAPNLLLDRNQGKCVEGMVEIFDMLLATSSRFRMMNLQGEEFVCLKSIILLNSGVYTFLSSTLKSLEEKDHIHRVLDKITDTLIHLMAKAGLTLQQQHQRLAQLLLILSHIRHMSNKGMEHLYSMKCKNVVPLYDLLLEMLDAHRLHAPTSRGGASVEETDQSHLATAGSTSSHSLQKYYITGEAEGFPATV

| SMILES | target or system | assay | system | setting | how to read | measurement | result |
| --- | --- | --- | --- | --- | --- | --- | --- |
| Cc1cn([C@H]2C[C@H](N=[N+]=[N-])[C@@H](CO)O2)c(=O)[nH]c1=O | SLC10A1 | taurocholate uptake, inhibitor | NTCP-expressing HEK293 | added: 10 µM taurocholate | – | Ki | 351 ± 72 µM |
| Cc1[nH]c(C)c(S(=O)(=O)Nc2ccc(C(F)(F)F)c(Cl)c2)c1C(=O)N1CC(F)(F)C1 | DRD3 | Go activation, antagonist, BRET | – | added: dopamine | – | IC50 | > 100 µM |
| O=C(CC1OCCN(Cc2ccccc2)C1=O)Nc1ccc2c(c1)OCCO2 (stereo not shown) | CDK2 | binding | – | – | – | Kd | > 100 µM |
| Cc1[nH]c(C)c(S(=O)(=O)Nc2cc(Cl)ccc2C(F)(F)F)c1C(=O)N1CCC(F)(F)C1 | DRD3 | Go activation, antagonist, BRET | – | added: dopamine | – | IC50 | > 100 µM |
| CC(C)C[C@H](NC(=O)C[C@H](O)[C@H](CC(C)C)NC(=O)[C@H](Cc1c[nH]cn1)NC(=O)CNC(=O)[C@@H](NC(=O)[C@H](C)NC(=O)[C@H](Cc1c[nH]c2ccccc12)NC(=O)[C@H](CCC(N)=O)NC(=O)[C@@H](Cc1ccccc1)NC(=O)COCCOCCNC(=O)CCC(C(=O)O)N1CCN(CC(=O)O)CCN(CC(=O)O)CCN(CC(=O)O)CC1)C(C)C)C(N)=O (stereo partly shown) [lutetium-177 labelled] | – | – | BALB/c nu/nu mice, bone | intravenous, 100 pmol, 1 h, added: PA 300 µg | – | tissue uptake | 0.1 ± 0.1 %ID/g |
| Cc1c(C(=O)N(C)C)c(S(=O)(=O)Nc2ccc(C(F)(F)F)c(Cl)c2)c(C)n1C | DRD3 | β-arrestin recruitment, antagonist, PathHunter | – | added: dopamine EC80 | – | IC50 | > 100 µM |
| O=C(CSc1nnc(-c2ccncc2)o1)Nc1ccc(F)cc1 | CDK2 with cyclin A | – | – | – | – | Kd | > 100 µM |
| c1csc(CNc2cc[nH]n2)c1 | human peripheral blood lymphocytes (female) | – | – | 2000 µg/mL, 4 h, repeat, added: without S9 | – | cells with numerical aberrations | 0% |
| CC(C)Oc1c(NC(=O)c2ccc(NC(=O)[C@H](CC(N)=O)NC(=O)c3ccc(NC(=O)c4ccc(C#N)cc4)cc3)cc2)ccc(C(=O)Nc2ccc(C(=O)O)cc2)c1O | Escherichia coli ATCC 25922 | – | neutropenic male CD-1 mice, muscle | iv then sc, 37.5 mg/kg/day, 24 h after infection, thigh infection model | – | concentration | 100 ± 3.2 ng/mL |
| CCCc1nc2c(C)cc(-c3nc4ccccc4n3C)cc2n1Cc1ccc(-c2ccccc2C(=O)O)cc1 | SLC10A1 | taurocholate uptake, inhibitor | NTCP-expressing HEK293 | added: 10 µM taurocholate | – | Ki | 65 ± 9.1 µM |
| Cn1cc(-c2ccc(-c3cncc(Cl)c3N3CCC4(CCNC4=O)CC3)cc2)cn1 | COLO 205 | gene expression, microarray, refers to: HIST1H4F mRNA | – | concentration not given, 6 h | reference: untreated cells | log2 fold change | -2.65 |
| CC[C@]1(O)C[C@@H]2CN(CCc3c([nH]c4ccccc34)[C@@](C(=O)OC)(c3cc4c(cc3OC)N(C)[C@H]3[C@@](O)(C(=O)OC)[C@H](OC(C)=O)[C@]5(CC)C=CCN6CC[C@]43[C@@H]65)C2)C1 | SLC10A1 | taurocholate uptake, inhibitor | NTCP-expressing HEK293 | added: 10 µM taurocholate | – | Ki | 159 ± 140 µM |
| OC[C@H]1O[C@@H](Oc2cc3c(O)cc(O)cc3[o+]c2-c2ccc(O)c(O)c2)[C@H](O)[C@@H](O)[C@@H]1O | ESR1 | array formation, agonist | ERα-GFP PRL-HeLa | 1 h | – | EC50 | 0.893 µM |
| COc1ccc([N+](=O)[O-])cc1NC(=O)C(C)Oc1ccccc1C (stereo not shown) | CDK2 with cyclin A | – | – | – | – | Kd | > 100 µM |
| F[C@@H]1CCN(c2ccc(-c3ccc4sc(-c5cccnc5)cc4n3)cn2)C1 | – | binding, [3H]compound homologous binding | Alzheimer's disease brain homogenate | – | – | Kd | 0.17 ± 0.06 µM |
| Cc1ccc(NS(=O)(=O)c2c(C)[nH]c(C)c2C(=O)N2CCC(F)(F)C2)nc1Br | DRD3 | Go activation, antagonist, BRET | – | added: dopamine | – | IC50 | > 100 µM |
| CC(C)c1cc(C(=O)N2Cc3ccc(CN4CCN(C)CC4)cc3C2)c(O)cc1O | – | binding, radioligand competition | mouse brain homogenate | 60 min, 37 °C, added: [3H]HSP990 0.5 nM | – | IC50 | 0.034 µM |
| Cc1[nH]cc(C(=O)N2CCC(F)(F)C2)c1S(=O)(=O)Nc1ccc(C(F)(F)F)c(Cl)c1 | DRD3 | β-arrestin recruitment, antagonist, PathHunter | – | added: dopamine EC80 | – | IC50 | > 100 µM |
| O=C(O)c1cccc(CSc2nnc(-c3ccncc3)o2)c1 | CDK2 with cyclin A | – | – | – | – | Kd | > 100 µM |
| Oc1ccc2c(c1)OC[C@H]1c3cc4c(cc3O[C@@H]21)OCO4 | ESR1 | array formation, agonist | ERα-GFP PRL-HeLa | 1 h | – | EC50 | 1.24 µM |
| CCOc1ccc(C(C)=O)cc1Cc1c(O)nc(N)nc1O | CDK2 with cyclin A | – | – | – | – | Kd | > 100 µM |
| CC1(C)C=Cc2c(ccc3c2OC[C@@H](c2ccc(O)cc2O)C3)O1 | ESR1 | array formation, agonist | ERα-GFP PRL-HeLa | 1 h | – | EC50 | 0.187 µM |
| COc1ncc(-c2nc3c(n2C(C)C)[C@H](c2ccc(Cl)cc2)N(c2cc(Cl)cn(C)c2=O)C3=O)c(OC)n1 | – | LC-MS/MS | human, plasma | oral, 350 mg, cycle 1 day 1, high-dose arm | – | Cmax | 2260 ng/mL |
| CCc1cc(C(=O)NC)c2nccc(N3CCc4c(cc(Cn5ccnc5)cc4-c4cn(C)nc4C(F)(F)F)C3=O)c2c1 | – | – | Sprague Dawley rats | oral, 100 mg/kg once daily, 7 days | – | mean corpuscular haemoglobin | 20.1 ± 0.53 pg |
| CO/N=C(\C(=O)N[C@@H]1C(=O)N2C(C(=O)O)=C(CSc3nc(=O)c(=O)[nH]n3C)CS[C@H]12)c1csc(N)n1 | SLC10A1 | taurocholate uptake, inhibitor | NTCP-expressing HEK293 | added: 10 µM taurocholate | – | Ki | 1290 ± 4340 µM |
| CC(Sc1nc2ccccc2[nH]1)C(=O)Nc1ccc(S(N)(=O)=O)cc1 (stereo not shown) | CDK2 | binding | – | – | – | Kd | > 100 µM |
| Cc1[nH]c(C)c(S(=O)(=O)Nc2ccc(C(F)(F)F)c(Cl)c2)c1S(=O)(=O)Nc1ccc(C(F)(F)F)c(Cl)c1 | DRD3 | Go activation, antagonist, BRET | – | added: dopamine | – | IC50 | > 100 µM |
| CNCc1ccc(-c2[nH]c3cc(F)cc4c3c2CCNC4=O)cc1 | – | – | human patients | oral, 600 mg twice daily, grade 1 | – | dizziness incidence | 11.5% |

Some of these lines once more:
| SMILES | target or system | assay | system | setting | how to read | measurement | result |
| --- | --- | --- | --- | --- | --- | --- | --- |
| COc1ccc([N+](=O)[O-])cc1NC(=O)C(C)Oc1ccccc1C (stereo not shown) | CDK2 with cyclin A | – | – | – | – | Kd | > 100 µM |
| Cc1[nH]c(C)c(S(=O)(=O)Nc2ccc(C(F)(F)F)c(Cl)c2)c1C(=O)N1CC(F)(F)C1 | DRD3 | Go activation, antagonist, BRET | – | added: dopamine | – | IC50 | > 100 µM |
| O=C(CC1OCCN(Cc2ccccc2)C1=O)Nc1ccc2c(c1)OCCO2 (stereo not shown) | CDK2 | binding | – | – | – | Kd | > 100 µM |
| CC(C)C[C@H](NC(=O)C[C@H](O)[C@H](CC(C)C)NC(=O)[C@H](Cc1c[nH]cn1)NC(=O)CNC(=O)[C@@H](NC(=O)[C@H](C)NC(=O)[C@H](Cc1c[nH]c2ccccc12)NC(=O)[C@H](CCC(N)=O)NC(=O)[C@@H](Cc1ccccc1)NC(=O)COCCOCCNC(=O)CCC(C(=O)O)N1CCN(CC(=O)O)CCN(CC(=O)O)CCN(CC(=O)O)CC1)C(C)C)C(N)=O (stereo partly shown) [lutetium-177 labelled] | – | – | BALB/c nu/nu mice, bone | intravenous, 100 pmol, 1 h, added: PA 300 µg | – | tissue uptake | 0.1 ± 0.1 %ID/g |
